Measured values collected from several papers.
A part holds a random share of what one study measured.

Series 1
Target: Interferon regulatory factor 3, full length, phosphomimetic (IRF3, Homo sapiens, UniProt Q14653, residues 1-427, S386D/S396D/S398D/S402D/T404D/S405D)
Technique: protein-binding microarray
Form: double-stranded DNA, one strand shown
Sample: in vitro
Concentration: 2540 nM top
Notes: 60-bp whole probe
Together with: salmon DNA 0.4 mg/ml
Relative to: random background probes
Reading: higher = stronger binding
Endpoint: fitted relative affinity
Residues (chain): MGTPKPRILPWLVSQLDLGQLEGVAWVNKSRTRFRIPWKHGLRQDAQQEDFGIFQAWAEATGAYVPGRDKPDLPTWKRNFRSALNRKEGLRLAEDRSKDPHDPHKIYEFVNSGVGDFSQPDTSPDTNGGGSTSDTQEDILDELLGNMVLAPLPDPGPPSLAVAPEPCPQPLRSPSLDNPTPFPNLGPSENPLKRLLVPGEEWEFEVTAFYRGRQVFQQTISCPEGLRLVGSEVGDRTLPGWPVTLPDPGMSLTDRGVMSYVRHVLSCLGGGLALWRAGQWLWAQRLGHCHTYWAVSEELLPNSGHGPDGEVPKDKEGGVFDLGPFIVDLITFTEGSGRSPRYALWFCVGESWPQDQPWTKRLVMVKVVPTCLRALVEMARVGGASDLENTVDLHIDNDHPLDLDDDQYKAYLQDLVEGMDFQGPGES
GCCTAGCACTTAGGTTTCCCTTCCCTTTAGTGCTAGGTCTTGATTCGCTTGACGCTGCTG: 9.19 z-score
GCCTAGCACGAAGGTATCGGGTATCGGGACGTGCTAGTCTTGATTCGCTTGACGCTGCTG: 1.55 z-score
GCCTAGCACTCACATCGTAAGCAAAAACTGTGCTAGGTCTTGATTCGCTTGACGCTGCTG: 0.0587 z-score
GCCTAGCACTTAGGTCTCGGTATCGGTAAGTGCTAGGTCTTGATTCGCTTGACGCTGCTG: 1.92 z-score

Series 2
Target: Histone acetyltransferase KAT6A, winged helix 2, GST fusion (KAT6A, Homo sapiens, UniProt Q92794, residues 85-181)
Technique: protein binding microarray
Form: double-stranded DNA, one strand shown
Sample: in vitro
Concentration: not given
Notes: 8-mer, flanks averaged, mean of 2 arrays, mostly near background
Relative to: not given
Reading: higher = stronger binding
Endpoint: E-score
Construct (chain): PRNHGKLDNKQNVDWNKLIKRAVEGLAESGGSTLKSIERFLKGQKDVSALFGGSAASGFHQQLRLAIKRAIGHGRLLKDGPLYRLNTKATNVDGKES
CTATCTCC: -0.158
TAGGGACA: -0.0197
AAATTGTG: -0.172
GCTCTTAC: 0.0351
CCGGCCAA: 0.0595
AAGTGATA: -0.2

Series 3
Target: Sal-like protein 4, full length isoform A (SALL4, Homo sapiens, UniProt Q9UJQ4, residues 1-1053)
Chain of UniProt Q9UJQ4 (whole entry, looked up): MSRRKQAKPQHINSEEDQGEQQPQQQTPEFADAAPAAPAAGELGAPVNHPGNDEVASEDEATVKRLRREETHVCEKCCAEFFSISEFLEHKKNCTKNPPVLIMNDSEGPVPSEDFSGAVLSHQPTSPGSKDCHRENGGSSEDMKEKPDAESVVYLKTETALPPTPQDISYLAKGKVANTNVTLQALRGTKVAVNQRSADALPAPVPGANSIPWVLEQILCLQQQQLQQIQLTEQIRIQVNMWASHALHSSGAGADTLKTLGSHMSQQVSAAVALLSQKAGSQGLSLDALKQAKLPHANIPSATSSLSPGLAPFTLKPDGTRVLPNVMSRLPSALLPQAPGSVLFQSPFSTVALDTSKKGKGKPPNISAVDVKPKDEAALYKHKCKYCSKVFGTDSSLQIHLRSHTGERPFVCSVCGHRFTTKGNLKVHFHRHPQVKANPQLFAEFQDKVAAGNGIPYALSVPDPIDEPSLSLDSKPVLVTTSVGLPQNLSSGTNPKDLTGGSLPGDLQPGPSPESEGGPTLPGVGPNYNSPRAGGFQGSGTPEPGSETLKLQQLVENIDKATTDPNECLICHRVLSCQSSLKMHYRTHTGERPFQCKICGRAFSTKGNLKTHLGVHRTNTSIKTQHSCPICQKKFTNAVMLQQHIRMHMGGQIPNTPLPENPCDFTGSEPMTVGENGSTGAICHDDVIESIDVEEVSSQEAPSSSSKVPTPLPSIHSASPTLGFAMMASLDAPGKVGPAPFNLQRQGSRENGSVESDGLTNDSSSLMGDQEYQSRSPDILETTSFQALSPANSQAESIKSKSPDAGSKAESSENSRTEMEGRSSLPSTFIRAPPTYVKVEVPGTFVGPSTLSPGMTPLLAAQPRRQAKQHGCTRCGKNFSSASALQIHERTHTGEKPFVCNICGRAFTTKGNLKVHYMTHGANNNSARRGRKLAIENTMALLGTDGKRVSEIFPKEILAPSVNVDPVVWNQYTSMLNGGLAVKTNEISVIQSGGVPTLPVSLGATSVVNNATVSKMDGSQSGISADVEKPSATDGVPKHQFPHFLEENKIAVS
Technique: universal PBM
Form: double-stranded DNA, one strand shown
Sample: in vitro
Concentration: 600 nM
Notes: 8-mer, flanks averaged, mean of replicates
Reading: higher = stronger binding
Endpoint: E-score
ATTCGCCA: 0.0494
CTGGAGCC: -0.287
TGAGGCCA: -0.127
CTATAACA: 0.224
TACATGAA: 0.294

Other studies, line by line
PhoQ, residues 284 288 289 292 302 303 WVSSAF — fold induction (PhoP, residues 12 14 15 18 19 AWHSL (Escherichia coli, UniProt P23836); Sort-seq, item: YFP reporter; E. coli; PhoQ-PhoP variant library, together with: 10 µM Mg2+; relative to: high Mg2+ state, higher = stronger signaling): 3.59

Repeated from above (series 1):
GCCTAGCACTTAGGTTTCCCTTCCCTTTAGTGCTAGGTCTTGATTCGCTTGACGCTGCTG: 9.19 z-score
GCCTAGCACGAAGGTATCGGGTATCGGGACGTGCTAGTCTTGATTCGCTTGACGCTGCTG: 1.55 z-score
